{"data": "Results of several laboratories", "note": "Numbered parts are unrelated; each lists some results of a single study. Changes are numbered by the printed parent chain."}
{"data": "Block 1", "target": "RING finger protein unkempt homolog, zinc fingers 1-6, GST-SBP tag (UNK, Homo sapiens, UniProt Q9C0B0, residues 30-357)", "technique": "RNA Bind-n-Seq", "molecule type": "RNA", "sample": "in vitro", "concentration": "not given", "notes": "RNA with constant flanks, human-mouse chimeric sites, ends assumed", "relative to": "input RNA pool", "direction": "higher = stronger binding", "Residues (chain)": "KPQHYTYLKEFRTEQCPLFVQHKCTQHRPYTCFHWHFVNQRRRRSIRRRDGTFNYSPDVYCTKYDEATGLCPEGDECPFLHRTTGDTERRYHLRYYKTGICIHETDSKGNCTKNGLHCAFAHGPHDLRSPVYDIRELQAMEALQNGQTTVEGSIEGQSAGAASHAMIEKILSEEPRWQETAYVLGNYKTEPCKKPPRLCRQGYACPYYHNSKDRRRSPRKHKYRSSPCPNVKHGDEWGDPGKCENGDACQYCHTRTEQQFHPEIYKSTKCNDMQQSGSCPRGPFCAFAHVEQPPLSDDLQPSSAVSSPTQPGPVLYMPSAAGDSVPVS"}
{"Oligonucleotide": "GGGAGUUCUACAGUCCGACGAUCGCCACCAGAUCCCAGAAACAUGACCCUUGCAGCCUAUAAAGAGAAGAUGAAGGAGCUCCCACUAGUGUCCUUGUUCUGCUCCUGCUUCCUGGCCGAUCCCCUGAAUAAGUCGUCCUACAACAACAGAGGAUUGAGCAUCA", "bound/input enrichment": "0.834 ratio"}
{"Oligonucleotide": "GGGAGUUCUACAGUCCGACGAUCUGUGCCCCACAAGAUCCUACCUGAGUGGCAGCUGAAGCACUUUUCUUCUCCUUGCCUGAACCCCCCCCCACUGCCCCCCCAUCCCCCAGUGUCGGCUGAGAUGUUGCCUCUGCACGGUUCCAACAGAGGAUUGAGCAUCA", "bound/input enrichment": "1.32 ratio"}
{"Oligonucleotide": "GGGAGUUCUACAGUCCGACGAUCGGCCUGGGACCGUCCUGGGCUAGUACAAUAGCGGCAGGUGGAGGCUCGAGAGGAAAGUUUGUUAGUGGAGGCAGUGGAGAGGUCGUCCAUGUACGGUCCUUUACUCGAUAGAUGUGUUCUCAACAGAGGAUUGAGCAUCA", "bound/input enrichment": "0.566 ratio"}
{"Oligonucleotide": "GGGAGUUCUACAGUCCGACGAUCAAAGAACCUCUCUCUGAUGAAGAUGAGGAAGACAAUGAUGAUGUUGAACCUAUUACUGAAUUUCGAUUUGUGCCCAGUGAUAAGUCAGCAUUGGAGGCGAUGUUCACUGCAAUGUGCGAGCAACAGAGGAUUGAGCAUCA", "bound/input enrichment": "0.198 ratio"}
{"Oligonucleotide": "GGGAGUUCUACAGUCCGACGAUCUGUAGUUUCUUGAUUUAUCAUUUUUCUCUUUUCUUUCUUUCCUUUAGGAAAAGCCUAAAGAUUAGGUUGUAAGAAAAACAGAAGCCAGCCAUGUUUCACCUGUGUUAAUUACAGGUAGUCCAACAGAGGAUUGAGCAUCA", "bound/input enrichment": "0.331 ratio"}
{"Oligonucleotide": "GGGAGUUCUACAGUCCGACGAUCUUUCUACUGCAGCAGACGAUGCUAAGAAUUAAGGAUCCUAAGAAGUCACUGGAUUUUUAUACGAGGGUUCUUGGACUGACCCUCCUGCAGAAGCUUGACUUCCCUGCUAUGAAGUUCUCGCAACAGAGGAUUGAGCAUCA", "bound/input enrichment": "0.149 ratio"}
{"Oligonucleotide": "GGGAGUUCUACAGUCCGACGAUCUUCAAAGAAAAGGGCAGCUGUGUCAUUUCAUAAGUAAAACUGCAUCCGGGAAAUUCUGUUCUUUUGUUUAAUUUUCCCCCAGAUAAAGCCAAAGUGUGUGUUGAAGAACUGAGAAAAAAUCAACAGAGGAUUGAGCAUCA", "bound/input enrichment": "0.267 ratio"}
{"Oligonucleotide": "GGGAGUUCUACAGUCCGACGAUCAUCAAAUAUUUUGGGGACAUCAUUAGUGUGGGACAGAGACUGUUGCAAGGAGCUCGGAUCUUAGGGAUUCCAGUUAUCAUAACGGAACAAUACCCCAAAGGACUUGGGAGCACGGUUCAACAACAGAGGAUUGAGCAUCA", "bound/input enrichment": "0.261 ratio"}
{"Oligonucleotide": "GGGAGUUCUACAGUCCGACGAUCCCUGCUCAGAUCACCAUGAAAGUAAUCCAAGGCCUAUAUAGUGGGGUCACCACAGUGGAACUGGACACUUUGGCUGCUGAGACAGCCGCGACCUUGACUACUAAGCACCCUGACUAUGCCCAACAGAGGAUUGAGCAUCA", "bound/input enrichment": "0.0979 ratio"}
{"Oligonucleotide": "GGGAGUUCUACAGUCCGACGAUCCAGCCUCAGAGCCCAGACUUCCUGGAUAUUACCAACCCUAAAGCGGUAUUAGAAAAUGCAUUGAGAAACUUCGCCUGUCUGACGACUGGGGAUGUGAUUGCCAUCAACUACAAUGAGAAGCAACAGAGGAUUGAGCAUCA", "bound/input enrichment": "0.389 ratio"}
{"Oligonucleotide": "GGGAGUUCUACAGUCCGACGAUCCACACACUCUUCUGUGGGACCCUCAUCUUGCAGGCCCGGGCCUAUGUGGGACCCCGUGUCCUGGCAGUGGUGACCCGCACAGGGUUCUGCACGGCAAAAGGGGGCCUGGUGAGCUCCAUCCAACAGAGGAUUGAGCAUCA", "bound/input enrichment": "0.0631 ratio"}
{"data": "Block 2", "target": "ABI1, truncated, D143A, DHFR fusion (Arabidopsis thaliana)", "technique": "DHFR PCA, deep sequencing", "sample": "yeast", "notes": "methotrexate growth selection, single substitutions", "together with": "(+)-ABA 0.39 µM", "relative to": "wild-type fitted maximum", "direction": "higher = stronger binding", "starting sequence": "PYL1, truncated, DHFR fusion (Arabidopsis thaliana); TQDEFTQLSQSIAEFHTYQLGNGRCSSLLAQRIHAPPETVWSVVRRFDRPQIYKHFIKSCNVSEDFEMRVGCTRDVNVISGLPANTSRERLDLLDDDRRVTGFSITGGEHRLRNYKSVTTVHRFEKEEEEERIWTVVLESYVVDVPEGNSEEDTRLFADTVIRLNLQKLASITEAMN"}
{"Variant": "R123W", "relative binding score [%]": -6.85}
{"Variant": "A30W", "relative binding score [%]": 36.4}
{"Variant": "Q19C", "relative binding score [%]": 24.2}
{"Variant": "I105G", "relative binding score [%]": -7.49}
{"Variant": "S26W", "relative binding score [%]": 2.14}
{"Variant": "S80L", "relative binding score [%]": 34.8}
{"Variant": "D92H", "relative binding score [%]": -6.61}
{"Variant": "T1F", "relative binding score [%]": 36.1}
{"Variant": "T6R", "relative binding score [%]": 58.2}
{"Variant": "F66W", "relative binding score [%]": 31.6}
{"Variant": "A35Q", "relative binding score [%]": -9.37}
{"Variant": "D95I", "relative binding score [%]": -13.6}
{"data": "Block 3", "target": "Prothrombin, mature alpha-thrombin (F2, Homo sapiens, UniProt P00734)", "technique": "aptamer microarray, sandwich", "molecule type": "DNA with 2'F-ANA", "sample": "in vitro", "concentration": "200 nM", "notes": "whole 15-mer aptamer, many near background", "together with": "Cy3 exosite-II aptamer, 400 nM", "direction": "higher = stronger binding", "oligonucleotide": "GGTTGGTGTGGTTGG"}
{"Modification": "2'F-ANA at 1 3 5 7 14 15", "mean fluorescence intensity [a.u.]": 46.8}
{"Modification": "2'F-ANA at 1 2 3 4 6 7 10 13 15", "mean fluorescence intensity [a.u.]": 95.7}
{"Modification": "2'F-ANA at 9 11 12 13 15", "mean fluorescence intensity [a.u.]": 606}
{"Modification": "2'F-ANA at 1 2 4 5 7 8 10 13 15", "mean fluorescence intensity [a.u.]": 55.2}
{"Modification": "2'F-ANA at 4 5 6 8 9 10 12 13 15", "mean fluorescence intensity [a.u.]": 47.3}
{"Modification": "2'F-ANA at 2 4 7 8 10 11 14", "mean fluorescence intensity [a.u.]": 64.2}
{"Modification": "2'F-ANA at 1 2 3 5 7 8 9 10 11 12 13", "mean fluorescence intensity [a.u.]": 60.8}
{"Modification": "2'F-ANA at 1 2 5 8 9 11 13 14", "mean fluorescence intensity [a.u.]": 44.3}
{"Modification": "2'F-ANA at 3 9 13 15", "mean fluorescence intensity [a.u.]": 842}
{"Modification": "2'F-ANA at 1 4 7 8 11 13 14", "mean fluorescence intensity [a.u.]": 54.2}
{"Modification": "2'F-ANA at 1 3 6 7 8 9 11 15", "mean fluorescence intensity [a.u.]": 247}
{"Modification": "2'F-ANA at 4 5 6 7 10 12 13 14", "mean fluorescence intensity [a.u.]": 47.6}
{"Modification": "2'F-ANA at 1 2 3 4 7 9 13 14 15", "mean fluorescence intensity [a.u.]": 58.1}
{"Modification": "2'F-ANA at 1 4 5 11 13 14 15", "mean fluorescence intensity [a.u.]": 61}
{"Modification": "2'F-ANA at 1 2 3 4 5 6 7 12 14", "mean fluorescence intensity [a.u.]": 52.6}
{"data": "Block 4", "Substance": "PhoQ, residues 284 288 289 292 302 303 SLANIV", "technique": "Sort-seq", "measured": "YFP reporter", "sample": "E. coli", "notes": "PhoQ-PhoP variant library", "together with": "10 µM Mg2+", "relative to": "high Mg2+ state", "direction": "higher = stronger signaling"}
{"target": "PhoP, residues 12 14 15 18 19 NFFVT (Escherichia coli, UniProt P23836)", "fold induction": 15.9}
{"target": "PhoP, residues 12 14 15 18 19 VGHWL (Escherichia coli, UniProt P23836)", "fold induction": 5.43}
{"target": "PhoP, residues 12 14 15 18 19 LHHYF (Escherichia coli, UniProt P23836)", "fold induction": 21.7}
{"target": "PhoP, residues 12 14 15 18 19 TPWTL (Escherichia coli, UniProt P23836)", "fold induction": 3.54}
{"note": "Repeated from above (block 3):"}
{"Modification": "2'F-ANA at 1 3 5 7 14 15", "mean fluorescence intensity [a.u.]": 46.8}
{"Modification": "2'F-ANA at 1 4 5 11 13 14 15", "mean fluorescence intensity [a.u.]": 61}
{"Modification": "2'F-ANA at 1 2 5 8 9 11 13 14", "mean fluorescence intensity [a.u.]": 44.3}
